Measurements collected from several papers.
Organism: Trypanosoma brucei

Structure (SMILES) = CCOc1cccc(Nc2nc(N)c(C(=O)c3ccc(OC)cc3)s2)c1; assay = cell proliferation, resazurin; system = bloodstream form; conditions = 73 h; EC50 = 4100 nM
Structure (SMILES) = CNCCCOc1cc(F)c(-c2c(Cl)nc3ncnn3c2N[C@@H](C)C(F)(F)F)c(F)c1; assay = parasite growth, SYBR Green; conditions = 72 h; EC50 = 81.3 nM
Structure (SMILES) = COC(=O)c1[nH]c(C(=O)OC)c2c1-c1c[nH]c3ccc(Cl)c(c13)[C@]21C=Nc2ccc(Cl)cc21; assay = parasite growth, ATP luminescence; conditions = 48 h; EC50 = 11000 nM
Structure (SMILES) = CN(C)CCCOc1cc(F)c(-c2c(Cl)nc3ncnn3c2NCC(C)(C)C)c(F)c1; assay = parasite growth, SYBR Green; conditions = 72 h; EC50 = 106 nM
Structure (SMILES) = Cc1cc(NC(=O)C2CCN(C(=O)Cc3c(C)[nH]c4ccccc34)CC2)no1; assay = cell viability, flow cytometry, PI; system = bloodstream form; conditions = 24 h; EC50 = > 25000 nM
Structure (SMILES) = CS[Se][C@@H]1O[C@H](COC(C)=O)[C@@H](OC(C)=O)[C@H](OC(C)=O)[C@H]1NC(C)=O; assay = parasite growth; conditions = 24 h; EC50 = 370 nM
Structure (SMILES) = CC(C)[C@H](Nc1c(-c2c(F)cc(OCCCN(C)C)cc2F)c(Cl)nc2ncnn12)C(F)(F)F; assay = parasite growth, SYBR Green; conditions = 72 h; EC50 = 67.9 nM
Structure (SMILES) = Clc1ccc(CNCCCNc2nc3ccccc3[nH]2)cc1; assay = parasite growth; EC50 = 960 nM
Structure (SMILES) = CC1CC(=O)c2c(OCC(=O)N3CCC(C(=O)Nc4ccccc4)CC3)ccc(Cl)c21 (stereo not drawn); assay = cell viability, flow cytometry, PI; system = bloodstream form; conditions = 24 h; EC50 = > 25000 nM
Structure (SMILES) = COC(=O)c1[nH]c(C(=O)OC)c2c1-c1c[nH]c3ccc(Cl)c(c13)C21CN(C)c2ccc(Cl)cc21 (racemic); assay = parasite growth, ATP luminescence; conditions = 48 h; EC50 = 3200 nM
Structure (SMILES) = Cc1ccc(-c2cc(C(=O)NCc3ccc(S(N)(=O)=O)cc3)c3cc(Br)ccc3n2)o1; assay = parasite growth, resazurin; conditions = 73 h; EC50 = 14500 nM
Structure (SMILES) = C[C@@H](Nc1c(-c2c(F)cc(C#N)cc2F)c(Cl)nc2ncnn12)C(C)(C)C; assay = parasite growth, SYBR Green; conditions = 72 h; EC50 = 205 nM
Structure (SMILES) = CC(=O)OC[C@H]1O[C@@H]([Se]C(=O)c2ccc([N+](=O)[O-])cc2)[C@H](OC(C)=O)[C@@H](OC(C)=O)[C@@H]1OC(C)=O; assay = parasite growth; conditions = 24 h; EC50 = 370 nM
Structure (SMILES) = CC(=O)OC[C@H]1O[C@@H]([Se][Se][C@@H]2O[C@H](COC(C)=O)[C@H](OC(C)=O)[C@H](OC(C)=O)[C@H]2OC(C)=O)[C@H](OC(C)=O)[C@@H](OC(C)=O)[C@H]1OC(C)=O; assay = parasite growth, flow cytometry; conditions = 24 h, blood stage; EC50 = 1490 nM
Structure (SMILES) = Cc1ccc(-c2cc(C(=O)Nc3cccnc3)c3cc(Br)ccc3n2)o1; assay = parasite growth, resazurin; conditions = 73 h; EC50 = 6900 nM
Structure (SMILES) = CC(Nc1c(-c2c(F)cc(OCCCN(C)C)cc2F)c(Cl)nc2ncnn12)C(C)(C)C (stereo not drawn); assay = parasite growth, SYBR Green; conditions = 72 h; EC50 = 38.9 nM
Structure (SMILES) = COc1ccc(Nc2nc(N)c(C(C)=O)s2)cc1; assay = cell proliferation, resazurin; system = bloodstream form; conditions = 73 h; EC50 = 13000 nM
Structure (SMILES) = C[C@@H](Nc1c(-c2c(F)cc(OCCCO)cc2F)c(Cl)nc2ncnn12)C(C)(C)C; assay = parasite growth, SYBR Green; conditions = 72 h; EC50 = 83.1 nM
Structure (SMILES) = CC(=O)OC[C@H]1O[C@@H]([Se]c2ccc([N+](=O)[O-])cc2[N+](=O)[O-])[C@H](OC(C)=O)[C@@H](OC(C)=O)[C@@H]1OC(C)=O; assay = parasite growth; conditions = 24 h; EC50 = 390 nM
Structure (SMILES) = CC(C)[C@H](C)Nc1c(-c2c(F)cc(OCCCN(C)C)cc2F)c(Cl)nc2ncnn12; assay = parasite growth, SYBR Green; conditions = 72 h; EC50 = 159 nM
Structure (SMILES) = CC1CCN(Cc2ccc(CNC(=O)Cc3cc(Cl)c4c(c3)OCCO4)cc2)CC1; assay = cell viability, flow cytometry, PI; system = bloodstream form; conditions = 24 h; EC50 = > 25000 nM
